# Published values gathered from unrelated publications.
# Every numbered part comes from another study and shows a few of its results, in no order.
# UniProt Q9ZPY6, sequence (whole entry, looked up): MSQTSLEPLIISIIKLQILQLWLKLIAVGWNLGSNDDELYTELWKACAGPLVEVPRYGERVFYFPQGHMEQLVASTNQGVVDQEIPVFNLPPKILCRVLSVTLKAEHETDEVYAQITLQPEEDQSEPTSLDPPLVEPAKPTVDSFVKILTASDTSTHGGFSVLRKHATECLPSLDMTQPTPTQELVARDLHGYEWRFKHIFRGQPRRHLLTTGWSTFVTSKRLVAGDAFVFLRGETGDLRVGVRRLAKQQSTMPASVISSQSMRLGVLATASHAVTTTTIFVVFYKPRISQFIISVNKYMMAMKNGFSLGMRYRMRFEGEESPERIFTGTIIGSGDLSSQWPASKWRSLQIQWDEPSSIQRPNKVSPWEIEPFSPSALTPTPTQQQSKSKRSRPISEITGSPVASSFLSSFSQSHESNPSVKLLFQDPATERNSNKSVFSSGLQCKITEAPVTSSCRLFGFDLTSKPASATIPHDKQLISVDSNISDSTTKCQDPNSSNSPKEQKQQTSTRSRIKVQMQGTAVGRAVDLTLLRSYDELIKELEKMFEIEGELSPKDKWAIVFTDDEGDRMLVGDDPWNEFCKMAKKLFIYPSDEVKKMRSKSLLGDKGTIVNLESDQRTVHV
# UniProt P08588, sequence (whole entry, looked up): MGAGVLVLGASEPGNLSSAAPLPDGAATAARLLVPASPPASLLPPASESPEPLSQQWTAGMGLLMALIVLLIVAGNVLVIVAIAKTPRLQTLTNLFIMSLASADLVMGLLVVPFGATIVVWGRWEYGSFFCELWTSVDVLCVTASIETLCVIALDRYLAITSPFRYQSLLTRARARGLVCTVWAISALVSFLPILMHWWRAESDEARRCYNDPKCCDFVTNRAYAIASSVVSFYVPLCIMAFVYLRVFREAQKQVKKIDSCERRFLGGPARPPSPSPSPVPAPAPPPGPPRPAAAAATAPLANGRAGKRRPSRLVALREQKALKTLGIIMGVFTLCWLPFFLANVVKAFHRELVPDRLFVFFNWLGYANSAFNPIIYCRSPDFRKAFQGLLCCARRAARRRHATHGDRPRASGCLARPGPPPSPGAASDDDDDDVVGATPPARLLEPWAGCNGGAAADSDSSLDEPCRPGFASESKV
# UniProt Q9LQE8, sequence (whole entry, looked up): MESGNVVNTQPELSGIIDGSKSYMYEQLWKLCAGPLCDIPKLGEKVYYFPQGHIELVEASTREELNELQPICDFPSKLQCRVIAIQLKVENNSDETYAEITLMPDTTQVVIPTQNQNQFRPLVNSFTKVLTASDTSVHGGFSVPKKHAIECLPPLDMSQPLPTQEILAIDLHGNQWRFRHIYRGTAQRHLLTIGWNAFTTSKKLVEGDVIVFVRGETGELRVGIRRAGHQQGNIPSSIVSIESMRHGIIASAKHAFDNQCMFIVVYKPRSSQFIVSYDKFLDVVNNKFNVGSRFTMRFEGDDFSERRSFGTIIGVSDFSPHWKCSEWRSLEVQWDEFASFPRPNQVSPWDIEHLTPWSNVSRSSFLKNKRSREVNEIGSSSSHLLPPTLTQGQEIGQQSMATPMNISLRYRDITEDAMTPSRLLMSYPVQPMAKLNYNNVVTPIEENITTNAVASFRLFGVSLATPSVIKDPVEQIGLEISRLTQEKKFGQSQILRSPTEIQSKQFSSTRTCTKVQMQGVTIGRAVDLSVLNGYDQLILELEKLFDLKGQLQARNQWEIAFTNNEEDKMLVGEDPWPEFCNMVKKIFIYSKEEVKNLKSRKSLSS
# UniProt P93024, sequence (whole entry, looked up): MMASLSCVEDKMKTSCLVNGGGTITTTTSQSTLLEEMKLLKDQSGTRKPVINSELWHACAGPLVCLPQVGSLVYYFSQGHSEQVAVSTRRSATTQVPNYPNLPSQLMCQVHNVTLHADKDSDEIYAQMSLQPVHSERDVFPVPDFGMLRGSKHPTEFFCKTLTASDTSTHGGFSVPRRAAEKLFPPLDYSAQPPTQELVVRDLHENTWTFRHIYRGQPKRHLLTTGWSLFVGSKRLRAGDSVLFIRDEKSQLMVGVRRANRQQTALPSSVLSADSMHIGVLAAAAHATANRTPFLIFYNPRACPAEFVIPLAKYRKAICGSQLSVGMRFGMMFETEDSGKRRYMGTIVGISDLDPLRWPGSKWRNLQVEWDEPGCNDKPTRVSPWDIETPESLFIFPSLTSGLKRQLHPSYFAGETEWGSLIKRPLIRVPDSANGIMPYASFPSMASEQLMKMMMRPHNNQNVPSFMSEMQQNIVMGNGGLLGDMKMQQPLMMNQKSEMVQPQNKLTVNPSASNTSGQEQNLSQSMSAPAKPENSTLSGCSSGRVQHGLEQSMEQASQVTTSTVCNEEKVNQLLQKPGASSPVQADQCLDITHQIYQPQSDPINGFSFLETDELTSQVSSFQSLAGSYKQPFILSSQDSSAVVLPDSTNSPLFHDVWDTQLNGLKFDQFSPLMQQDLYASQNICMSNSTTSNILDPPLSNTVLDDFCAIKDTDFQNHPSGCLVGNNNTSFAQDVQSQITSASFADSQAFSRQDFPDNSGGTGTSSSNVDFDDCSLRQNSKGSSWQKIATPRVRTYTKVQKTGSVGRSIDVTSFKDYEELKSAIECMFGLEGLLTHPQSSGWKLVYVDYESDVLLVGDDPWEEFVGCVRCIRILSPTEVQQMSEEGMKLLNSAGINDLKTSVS
# UniProt Q9XED8, sequence (whole entry, looked up): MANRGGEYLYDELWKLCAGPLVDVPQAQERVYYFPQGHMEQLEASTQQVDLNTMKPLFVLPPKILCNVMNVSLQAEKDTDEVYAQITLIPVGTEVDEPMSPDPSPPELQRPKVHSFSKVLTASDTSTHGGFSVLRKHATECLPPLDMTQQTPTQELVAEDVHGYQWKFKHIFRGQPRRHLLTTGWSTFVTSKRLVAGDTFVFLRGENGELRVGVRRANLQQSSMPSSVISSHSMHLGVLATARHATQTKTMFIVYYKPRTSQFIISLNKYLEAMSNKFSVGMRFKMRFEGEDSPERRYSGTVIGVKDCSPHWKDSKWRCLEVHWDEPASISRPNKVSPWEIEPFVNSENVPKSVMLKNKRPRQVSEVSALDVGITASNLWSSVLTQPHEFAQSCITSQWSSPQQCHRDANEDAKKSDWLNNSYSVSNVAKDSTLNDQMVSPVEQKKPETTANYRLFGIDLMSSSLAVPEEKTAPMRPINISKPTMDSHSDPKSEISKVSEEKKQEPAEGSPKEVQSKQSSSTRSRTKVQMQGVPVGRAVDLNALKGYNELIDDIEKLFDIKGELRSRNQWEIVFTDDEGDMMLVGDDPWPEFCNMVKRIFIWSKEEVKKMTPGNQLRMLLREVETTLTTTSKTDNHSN

# Sample 1 — Molecule: B1 (ARF4 660-788); technique: two-hybrid; reading: higher = firmer interaction
# B1: ARF4 660-788 (Arabidopsis thaliana, UniProt Q9ZTX9); chain QSSSKRICTKVHKQGSQVGRAIDLSRLNGYDDLLMELERLFNMEGLLRDPEKGWRILYTDSENDMMVVGDDPWHDFCNVVWKIHLYTKEEVENANDDNKSCLEQAALMMEASKSSSVSQPDSSPTITRV
partner,setting,scale,positive tests
"ARF5 788-902 (Arabidopsis thaliana, UniProt P93024)",,reference: out of 2 tests,0
"ARF11 500-622 (Arabidopsis thaliana, UniProt Q9ZPY6)",,reference: out of 3 tests,0
"ARF9 519-638 (Arabidopsis thaliana, UniProt Q9XED8)",weak activation fusion,reference: out of 2 tests,0
"ARF14 497-605 (Arabidopsis thaliana, UniProt Q9LQE8)",,reference: out of 2 tests,0

# Sample 2 — technique: RNA Bind-n-Seq; form: RNA; matrix: in vitro; tested at: not given; setting: RNA with constant flanks, ends assumed; reference: input RNA pool; reading: higher = stronger binding
# Target: RING finger protein unkempt homolog, zinc fingers 1-6, GST-SBP tag (UNK, Homo sapiens, UniProt Q9C0B0, residues 30-357)
# UniProt Q9C0B0, sequence (30-357, looked up): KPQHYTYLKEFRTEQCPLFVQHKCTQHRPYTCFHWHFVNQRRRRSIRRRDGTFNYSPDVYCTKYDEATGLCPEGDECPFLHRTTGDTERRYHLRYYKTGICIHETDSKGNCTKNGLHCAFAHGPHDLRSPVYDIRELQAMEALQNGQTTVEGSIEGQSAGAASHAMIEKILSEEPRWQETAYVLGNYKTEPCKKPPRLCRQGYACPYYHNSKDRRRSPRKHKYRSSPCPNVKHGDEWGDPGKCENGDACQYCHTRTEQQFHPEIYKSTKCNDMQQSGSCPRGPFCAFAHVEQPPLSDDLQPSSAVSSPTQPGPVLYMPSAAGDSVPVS
# Shared flanks, not repeated: GGGAGUUCUACAGUCCGACGAUC … CAACAGAGGAUUGAGCAUCA
Strand,bound/input enrichment [ratio]
CCAUGUUUAUUAGCUGGAGGUUUAUUAACAUAUAAAUCUCCUGCUACCUCACCCAUCCGCCGUAAUUCUCACAGGUCACUGGAUGGUUUAAGCAGAACUCAGGGUGAAAGUAUAUCAGAA,0.109
CAUGGGUUUUAAGUGCUUGUGGCUCACUGAAGCUUAAGUGAGGAUUUCCUUGCAAUGAGCCGAAUUUCCCUUCUCUCCCUUGUCACAGGUUUAAAAACCUCACAGCUUGUAUAAUGUAAC,0.188
GCUUUACUUUCAGAAAAUGUUUUAGGGUAACUGCAUAAGACUAUGCAAUAAUUUUUAAUCAUCCGUAUUGAUGGUGUAUUAAAAGUUGUUGUACUUUGUCUGUGACCUUAAUUUUCUGCA,0.195
AGAGAAGAGAUUCUGGCAUUUAUUAAGUCUUGCCAACAUGAAUGUGGUGGAAUAAGUGCCCGUAUCGGACAUGAUCCUCAUCUUUUAUACACUCUUAGUGCUGUCCAGAUUCUUACGCUG,0.139
UUCGCCUGCGCCAAGCUCGCCCGCACCCCCGCUCUGAUCCGAGCUGGAUCCAGAGUUGCAUACCGACCAAUUUCUGCAUCAGUGUUAUCUCGGCCAGAGACUAGGACUGGAGAGGGCUCU,0.139
GAUGUAGAAAUAAUCUUUAAUGAACGUGGCUCUAAGGGAUUCGGGUUCGUAACUUUCGAGAACCGUGCUGAUGCAGACAGGGCCAGGGAGAAAUUACACGGCACCGUGGUAGAGGGCCGU,0.378
CCUUCUAAUUUUGGAGAUUUUUCUCAGAAUAUCUCUACACCCAGUGAACAGCAGCAACCCUCCGCCCAGAAUUCUUCAGGAAAAACAGAAUAUAUGGCUUUUCCAAAACCUUUUGAAAGC,0.411
GCCAGCCCUGCGCCUCGCGCCGUCGCGCAUGCGUCCUGGUCUUUCUCUAGAGUUGUAUAUACCGAACAUCCUGGAGUCCACCAUGAACGGACAGUUGGAUCUAAGUGGGAAGCUAAUCAU,0.108

# Sample 3 — technique: EMSA with sequencing; form: double-stranded DNA, one strand shown; matrix: in vitro; tested at: 10 and 20 nM; reference: negative control set to 0; reading: higher = stronger binding
# Target: Hepatocyte nuclear factor 3-alpha (Foxa1, Mus musculus, UniProt P35582, residues 1-468, full length assumed)
# UniProt P35582, sequence (whole entry, looked up): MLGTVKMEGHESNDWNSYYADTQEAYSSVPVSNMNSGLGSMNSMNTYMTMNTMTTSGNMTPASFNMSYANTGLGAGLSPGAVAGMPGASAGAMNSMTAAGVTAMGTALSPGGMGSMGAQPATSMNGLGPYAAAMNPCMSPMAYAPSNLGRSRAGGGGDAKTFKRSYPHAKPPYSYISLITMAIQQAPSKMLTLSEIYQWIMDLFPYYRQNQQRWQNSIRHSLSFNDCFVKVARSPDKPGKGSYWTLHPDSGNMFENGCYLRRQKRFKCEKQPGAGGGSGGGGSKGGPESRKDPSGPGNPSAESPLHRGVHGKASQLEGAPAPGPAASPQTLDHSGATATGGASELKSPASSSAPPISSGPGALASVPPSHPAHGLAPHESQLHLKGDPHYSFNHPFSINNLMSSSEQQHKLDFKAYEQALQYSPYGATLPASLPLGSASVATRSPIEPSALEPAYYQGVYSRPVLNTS
# Setting: whole designed probe, mean of two concentrations, ends assumed
# Shared flanks, not repeated: GTGAGCGGTGCCCATTGATGGGGAAC … TTTCACTGGGATCGTGGGGAC
Strand,normalised bound fraction
ATGGTAGAGGGAGCTGGCCCTGCATACTGGTATCAGCGTAAAGAACAGTCAGGCGTGCCTGTGAGCAAGGCAGGGCCGTGACTCAGACTTCAGTAAACACGAAGTGTGAGTTCAACCCAGAAAAATGCTGTCTCAGGTTTTGCAGACTTGTCAGAAATAAATCACCAACTTTAGGAAGCTTTGGTGCAAGAGC,0.0713 ratio
GGCAGCACTTAGCAGCAGCTACAAATAACAATGGAAAGGTTGGAGAACCCATCACATGCCAGACACAGGGCTAAGTGTGCAGATACCGATTTGAGATTACTTTTGCTCTGTAGAAGAATCAGGAGGATGAGGTCTATTTGGTTTTTACTTTTCCCATCGAGTTATCTCCCACTCTGAGACTGAAGCTGGACTT,0.0323 ratio
CTCATTCCTTGCTTCCGCCAATAATCTGACTAGTAAAGAAGTCACTGCATGCCACAAATTGTCAGTGCTGACTTCCTCAACAAGGAAGTTATTTATTTACTTATTTAATATATGAGTGTCACAGATGCAAATTCCATCTTGAGAATACCAACTCCTGATGCCAACTGATTGTCAGTCATGGCTACAACAGGAG,0.473 ratio
CTTTCGAAATGCTTTAGCTTTAATAGTTGAGATTGCAGTAAATAATACATTTTTTTGTACCTTAAGCAAATAGAGTCTTAAAAAATGTCAGTGTAAACATGTAAATCAAAGATAGAAAACCAAATAACAAAATAAAAGTATATCATACTTGCATTGGGAAAGAGGCATATATGTATATAGGAACTATGGTAGT,0.385 ratio
CTTACATGCAATTGCTTAATATAATATAGCTTTCCTCTCAATTTTACAAAATTAAGATCTTACTTGGCTAATTCTAAGACACCTAGGAACAGTGTAATTTTGGCTCAGAATTGCCAGTGCCCAGACTGGAATTTCACTGAATGAATATAATCATTTTCTCCTTAAAGTAACCTAAAATAAACCCCTCCAAAAA,0.0172 ratio
ATCTTCCCCCTCTTCCTTGCCCCACCAGCTCACCTACGGGGGTTATTTGCACAAAGGAAAATAAATAAAGCCGGCATTCGTTAACCCTCTTCACGCGCATACTGCTGTTTGCTCTGGATCTAACATGGTCCTTTGGCGACGCCAGGCTCCGGGAGAGCAAAGCACCGTGTCAGGGCCATGATCCGGGGTGGCC,0.384 ratio
GTGGCACCATTTCCTTATTAAAGCTCTATGCAGAAGGAGTGGAGCTACTTTGTATGCTTATTCTTTGTTCTTCTACCACTTTCTCTTTCCCATGTTTACATTACAAGGGAGAAGTTAAGAAAATAAAAGAAGCCAACTGGGAAAGGCCACATAGCAGATTTGAGGCTTTGGGAGTAGGAGCAAGGAGCACAAA,0.396 ratio
ATAACTGTTCTTTCCATCCACATATAATTTTTCTAATCTGTAATGAGTTGGATTTTCATTTATTCTGTACAGAGAGTACTAAGTATTTACTGCATGTTTACTTTTTAAATATACCATCTATATGCTACTTGGCCCCTCTACACTGCTTTCTTGGAAATAAAATACTGTGCCTATAACTGCTCCAAGTACATAA,0.348 ratio

# Mixed results
Structure (SMILES),target,test,measurement,value
Cc1nc(Nc2n[nH]c3c2CN(C(=O)N[C@H](CN(C)C)c2ccccc2)C3(C)C)c2sccc2n1,"Beta-1 adrenergic receptor (ADRB1, Homo sapiens, UniProt P08588)",antagonist,IC50,≥ 100 µM

# Some of these lines once more (sample 2):
Strand,bound/input enrichment [ratio]
GCUUUACUUUCAGAAAAUGUUUUAGGGUAACUGCAUAAGACUAUGCAAUAAUUUUUAAUCAUCCGUAUUGAUGGUGUAUUAAAAGUUGUUGUACUUUGUCUGUGACCUUAAUUUUCUGCA,0.195
